Measured values collected from several papers.
Each line is one published result; not all experiments were run side by side. Values joined by “and” are separate records of one study, mostly repeats; a detail may differ. ± marks the error that the study gave. Converted amounts (≈) assume the structure as drawn.
4'-phosphopantetheinyl transferase PptT: 4'-phosphopantetheinyl transferase PptT (Mycobacterium tuberculosis, UniProt O33336)
Sequence of UniProt O33336 (whole entry, looked up): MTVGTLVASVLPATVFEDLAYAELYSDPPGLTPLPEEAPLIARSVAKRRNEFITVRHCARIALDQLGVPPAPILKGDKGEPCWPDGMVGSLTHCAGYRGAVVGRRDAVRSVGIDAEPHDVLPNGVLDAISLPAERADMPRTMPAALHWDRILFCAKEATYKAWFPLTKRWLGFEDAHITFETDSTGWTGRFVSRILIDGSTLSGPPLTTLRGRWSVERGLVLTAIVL
SCRIB PDZ3 domain: Protein scribble homolog, PDZ3 domain (SCRIB, Homo sapiens, UniProt Q14160)
Sequence of UniProt Q14160 (whole entry, looked up): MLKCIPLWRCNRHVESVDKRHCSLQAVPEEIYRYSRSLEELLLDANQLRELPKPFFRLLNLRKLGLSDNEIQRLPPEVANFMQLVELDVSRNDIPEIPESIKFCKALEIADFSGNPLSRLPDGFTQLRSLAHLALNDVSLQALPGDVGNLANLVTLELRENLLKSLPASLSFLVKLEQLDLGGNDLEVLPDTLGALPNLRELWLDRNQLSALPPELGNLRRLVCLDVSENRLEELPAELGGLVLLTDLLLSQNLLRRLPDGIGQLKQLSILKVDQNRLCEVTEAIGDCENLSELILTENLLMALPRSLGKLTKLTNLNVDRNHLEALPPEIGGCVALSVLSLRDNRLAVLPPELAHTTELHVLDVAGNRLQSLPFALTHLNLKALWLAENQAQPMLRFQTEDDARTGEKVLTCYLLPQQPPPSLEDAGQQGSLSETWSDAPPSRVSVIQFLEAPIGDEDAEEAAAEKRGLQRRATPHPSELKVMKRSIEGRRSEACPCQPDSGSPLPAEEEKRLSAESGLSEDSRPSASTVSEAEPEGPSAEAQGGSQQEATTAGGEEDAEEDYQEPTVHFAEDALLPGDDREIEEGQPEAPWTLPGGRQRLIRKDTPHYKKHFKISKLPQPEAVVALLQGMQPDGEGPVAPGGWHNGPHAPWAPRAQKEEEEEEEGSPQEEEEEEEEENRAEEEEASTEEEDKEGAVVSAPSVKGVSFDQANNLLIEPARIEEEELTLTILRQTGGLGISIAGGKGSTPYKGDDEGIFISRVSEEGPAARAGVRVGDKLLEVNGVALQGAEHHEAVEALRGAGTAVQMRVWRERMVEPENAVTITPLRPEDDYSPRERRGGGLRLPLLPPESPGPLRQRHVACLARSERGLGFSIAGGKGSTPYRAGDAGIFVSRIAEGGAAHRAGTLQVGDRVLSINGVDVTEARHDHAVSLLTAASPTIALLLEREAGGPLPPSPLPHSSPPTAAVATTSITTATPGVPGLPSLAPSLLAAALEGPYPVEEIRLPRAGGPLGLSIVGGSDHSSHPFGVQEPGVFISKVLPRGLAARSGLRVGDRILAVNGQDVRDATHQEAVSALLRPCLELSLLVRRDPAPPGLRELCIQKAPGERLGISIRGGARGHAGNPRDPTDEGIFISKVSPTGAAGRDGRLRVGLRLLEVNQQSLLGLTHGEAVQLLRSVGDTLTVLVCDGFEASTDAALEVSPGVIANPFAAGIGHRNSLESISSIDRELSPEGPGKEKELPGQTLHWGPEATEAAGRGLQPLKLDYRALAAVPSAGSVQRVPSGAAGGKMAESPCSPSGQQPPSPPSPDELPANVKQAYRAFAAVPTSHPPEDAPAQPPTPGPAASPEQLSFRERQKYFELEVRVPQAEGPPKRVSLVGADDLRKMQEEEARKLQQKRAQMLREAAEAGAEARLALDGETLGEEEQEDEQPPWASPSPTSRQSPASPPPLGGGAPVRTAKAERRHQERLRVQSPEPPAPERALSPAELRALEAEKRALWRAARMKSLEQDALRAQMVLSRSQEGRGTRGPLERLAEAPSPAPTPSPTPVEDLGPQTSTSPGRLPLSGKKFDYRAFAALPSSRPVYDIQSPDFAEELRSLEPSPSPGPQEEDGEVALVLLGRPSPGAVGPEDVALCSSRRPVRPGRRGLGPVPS
Sequence of UniProt O75608 (whole entry, looked up): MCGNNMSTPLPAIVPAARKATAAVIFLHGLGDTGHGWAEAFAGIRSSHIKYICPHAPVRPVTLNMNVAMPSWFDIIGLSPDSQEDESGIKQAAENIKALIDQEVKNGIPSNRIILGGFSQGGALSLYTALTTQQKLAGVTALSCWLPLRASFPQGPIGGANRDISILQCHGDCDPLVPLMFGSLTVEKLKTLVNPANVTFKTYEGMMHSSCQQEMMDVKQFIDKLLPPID
Sequence of UniProt O00329 (whole entry, looked up): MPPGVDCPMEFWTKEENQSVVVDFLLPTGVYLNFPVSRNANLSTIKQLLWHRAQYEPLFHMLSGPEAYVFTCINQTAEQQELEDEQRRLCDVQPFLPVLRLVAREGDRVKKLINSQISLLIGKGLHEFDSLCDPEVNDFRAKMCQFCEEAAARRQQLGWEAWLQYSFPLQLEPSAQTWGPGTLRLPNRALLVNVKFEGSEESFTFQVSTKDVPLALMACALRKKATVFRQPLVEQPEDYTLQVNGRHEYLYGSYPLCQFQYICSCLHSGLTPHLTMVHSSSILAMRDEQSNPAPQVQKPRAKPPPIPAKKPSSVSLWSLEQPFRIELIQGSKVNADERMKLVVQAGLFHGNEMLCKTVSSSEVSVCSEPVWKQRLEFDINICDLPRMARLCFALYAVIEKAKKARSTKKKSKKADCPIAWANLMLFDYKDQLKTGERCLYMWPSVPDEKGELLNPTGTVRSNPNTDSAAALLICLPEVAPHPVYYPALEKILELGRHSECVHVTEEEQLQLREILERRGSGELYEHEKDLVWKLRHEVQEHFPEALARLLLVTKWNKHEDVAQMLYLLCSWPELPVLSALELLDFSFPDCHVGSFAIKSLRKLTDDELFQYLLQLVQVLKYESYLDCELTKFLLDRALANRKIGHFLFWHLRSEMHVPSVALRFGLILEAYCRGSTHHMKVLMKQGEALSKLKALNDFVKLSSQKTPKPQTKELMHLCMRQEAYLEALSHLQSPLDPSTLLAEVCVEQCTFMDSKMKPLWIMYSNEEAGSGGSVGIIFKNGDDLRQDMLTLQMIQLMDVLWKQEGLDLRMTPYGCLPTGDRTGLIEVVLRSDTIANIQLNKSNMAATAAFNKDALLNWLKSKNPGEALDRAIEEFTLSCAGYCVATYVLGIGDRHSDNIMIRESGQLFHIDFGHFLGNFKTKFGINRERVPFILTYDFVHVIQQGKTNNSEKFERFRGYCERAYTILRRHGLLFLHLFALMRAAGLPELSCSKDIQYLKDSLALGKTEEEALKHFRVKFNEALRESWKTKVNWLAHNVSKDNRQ

| SMILES | tested on | assay | test system | setting | scale | endpoint | value |
| --- | --- | --- | --- | --- | --- | --- | --- |
| O=C(c1ccc(Cl)cc1)N1CCN2C(=O)N(OC(=O)N3CCOc4ccccc43)C(=O)C2C1 (stereo not drawn) | Acyl-protein thioesterase 1 (Homo sapiens, UniProt O75608) | MS-based ABPP | SW-620 conditioned medium | 10 µM, 1 h, 37 °C | reference: compound over DMSO, lower = more inhibition | mean protein ratio | 0.94 |
| O=c1nc(NO)ccn1[C@@H]1O[C@H](CO)[C@@H](O)[C@H]1O | – | – | rat placenta dialysate | 1000 ng/mL, 6 h, 10 °C, high QC concentration, together with: molnupiravir | – | autosampler stability | 102 ± 1.33% |
| CC(C)[C@@H]1NC(=O)CNC(=O)[C@H](CC(N)=O)NC(=O)[C@H](CCCNC(=N)N)NC(=O)[C@H](Cc2ccc(O)cc2)NC(=O)[C@H](C(C)C)NC(=O)[C@@H](NC(=O)[C@@H](NC(=O)[C@H](CC(N)=O)NC(=O)[C@H](Cc2c[nH]c3ccccc23)NC(=O)[C@H](C)NC(=O)[C@H](Cc2ccccc2)NC(=O)CN)C(C)C)CSSC[C@@H](C(=O)N[C@@H](Cc2cnc[nH]2)C(=O)N[C@@H](CCCNC(=N)N)C(=O)N[C@@H](CCCNC(=N)N)C(=O)N[C@@H](C)C(=O)N[C@@H](CC(N)=O)C(N)=O)NC(=O)[C@H](C(C)C)NC(=O)[C@H](CCCNC(=N)N)NC1=O | – | HPLC | mouse mammary gland homogenate | 2560 µM, 10.00 h, 37 °C, 50 mg/mL tissue | – | remaining peptide | 39.7% and 33.4% and 45.1% |
| O=S(=O)(c1ccc(O)cc1)c1ccc(O)cc1 | – | – | control solution without PVC | 120 h, pH 7.0, 298 K, initial 0.5 mg/L, 200 rpm | – | equilibrium concentration | 0.487 ± 0.02 mg/L |
| C=CC(=O)N1CC[C@H](n2nc(C#Cc3cc(OC)cc(OC)c3)c3c(N)ncnc32)C1 | – | refers to: Constipation | healthy adults | oral, grade ≥3, pooled treatments | – | TEAE incidence | 0% |
| CCc1cccc(CC)c1NC(=O)NC(=N)NCCOC | 4'-phosphopantetheinyl transferase PptT | inhibitor | – | – | – | IC50 | 98.5 µM |
| COc1cc(Nc2ncc(F)c(Nc3ccc4c(n3)NC(=O)C(C)(C)O4)n2)cc(OC)c1OC | – | – | PBS | 3 h, pH 7.4, 1% DMSO | – | solubility | 1.1 µM (≈ 0.518 µg/mL) |
| C[C@]1(CO)Cc2ncn(-c3ccc(C#N)c(Cl)c3)c2C(=O)O1 | – | – | human, Chinese | 80 mg single dose | – | subjects with drug-related dizziness | 33.3% |
| CN1CCN(CC/C=C2/c3ccccc3Sc3ccc(S(=O)(=O)N(C)C)cc32)CC1 | African green monkey cells | – | – | 5 days | – | CC50 | 4.96 µM |
| CC(C)C[C@H](NC(=O)[C@@H](NC(=O)[C@@H](NC(=O)[C@H](CO)NC(=O)[C@@H]1CCCN1C(=O)[C@H](CC(C)C)NC(=O)[C@H](CCCCN)NC(=O)[C@H](CCCNC(=N)N)NC(=O)[C@@H](NC(=O)[C@@H](N)CCCNC(=N)N)C(C)C)[C@@H](C)O)[C@@H](C)O)C(=O)O | SCRIB PDZ3 domain | binding, fluorescence polarization | solution | Scribble PDZ3 domain | – | Kd | 27 µM |
| C[C@@H](NC(=O)N1C(=O)[C@H](Cc2ccnc(N)c2)[C@H]1C(=O)O)C1CCCCC1 | – | – | healthy adult Chinese volunteers | continuous intravenous infusion, 1.0 mg/kg/h, 5-day infusion, CTCAE 5.0 grading | – | incidence of mild AEs | 37.5% |
| Fc1ccc([C@@H]2CCNC[C@H]2COc2ccc3c(c2)OCO3)cc1 | – | refers to: Constipation | healthy volunteers | oral, dose not given, given -1 h relative to LSD, together with: LSD | direction not given | List of Complaints score | 0 score |
| CC(C)C[C@H](NC(=O)[C@H](CS)NC(=O)[C@H](Cc1c[nH]cn1)NC(=O)[C@H](CC(C)C)NC(=O)[C@H](C)NC(=O)[C@H](CCC(=O)O)NC(=O)[C@H](CC(C)C)NC(=O)[C@H](CCC(=O)O)NC(=O)[C@@H]1CCCN1C(=O)[C@@H](N)CC(=O)O)C(=O)O | SCRIB PDZ3 domain | binding, fluorescence polarization | solution | Scribble PDZ3 domain | – | Kd | 38.8 µM |
| Cc1c(C(=O)O)ccc2c3n(nc12)[C@@H]1[C@H](C3)N(CC2CC2)[C@@]2(C(=O)Nc3cc(Cl)ccc32)[C@H]1c1cccc(Cl)c1F | – | – | athymic nude mice, orthotopic brain tumour PDX, tumour | 1 mg/kg single, 24 h | – | tumour concentration | 11 ± 4 nM |
| COc1ncccc1-c1cnn2ccc(N3CCN(C(=O)OC(C)C)CC3)nc12 | – | – | mouse nerve ligation model, brain | oral, 3 mg/kg, 120 min after last dose, repeat dosing day 5 | – | drug concentration | 1300 nM |
| Cn1nccc1[C@]1(CNC(=O)c2ccc(F)c(F)c2-c2ccc(C(F)(F)F)cc2)NC(=O)NC1=O | – | – | rat | intravenous, 0.3 mg/kg | – | dose-normalised AUC | 3.1 kg·h/L |
| COc1cc2c(Oc3ccc4[nH]c(C)cc4c3F)ccnc2cc1OCC1(N)CC1 | – | – | paediatric recurrent refractory sarcoma | 10 mg | – | grade 1 or 2 Hyperthyroidism | 0% |
| CC(C)(O)c1cc(Nc2cc(Oc3cn(C4CC4)nc3C3CCOCC3)ccn2)ccn1 | – | Thrombocytopenia | advanced cancer patients, dose escalation | oral, dose not given, 3 weeks on/1 off, all causality grade ≥3 | – | treatment-emergent adverse events | 0% |
| CN[C@@H](C)C(=O)N[C@H]1CN(S(=O)(=O)c2cccc(S(=O)(=O)N3CC[C@H]4CC[C@@H](C(=O)NC(c5ccccc5)c5ccccc5)N4C(=O)[C@@H](NC(=O)[C@H](C)NC)C3)c2)CC[C@H]2CC[C@@H](C(=O)NC(c3ccccc3)c3ccccc3)N2C1=O | – | – | patients with advanced solid tumours | 7 mg, phase I monotherapy | – | treatment-related pruritus incidence | 0% |
| COc1ccnc(C(=O)N[C@H]2COC(=O)[C@H](Cc3ccccc3)[C@@H](OC(=O)C(C)C)[C@H](C)OC2=O)c1OCOC(=O)C(C)C | – | liver toxicity | mouse | oral, 90 day | – | NOAEL | 39.6 mg/kg/day |

| SMILES | tested on | assay | test system | setting | scale | endpoint | value |
| --- | --- | --- | --- | --- | --- | --- | --- |
| COc1cc(CCC[P+](c2ccccc2)(c2ccccc2)c2ccccc2)c(OC)c2c1OCO2.[I-] | K562 | SRB | – | – | – | GI50 | -6.18 log M |
| Cn1ncc(-c2nc(N[C@H]3CC[C@H](N)CC3)ncc2Cl)c1CC1CC1 | – | HPLC-MS/MS | patients, plasma | oral, 21 mg, day 1 | – | AUC | 2140 ng·h/mL |
| CC[C@H](C)[C@@H]([C@@H](CC(=O)N1CCC[C@H]1[C@H](OC)[C@@H](C)C(=O)N[C@H](C)[C@@H](O)c1ccccc1)OC)N(C)C(=O)[C@@H](NC(=O)[C@H](C(C)C)N(C)C(=O)OCc1ccc(NC(=O)[C@H](CCCNC(N)=O)NC(=O)[C@@H](NC(=O)c2ccc(Cn3nnc4c3-c3ccccc3N(C(=O)CCC(=O)NCCOCCOCCOCCOCCC(=O)N[C@@H](CCC(=O)NCCCCCC(=O)N[C@@H](CCC(=O)N[C@@H](CCCOP(=O)(O)N[C@@H](CCC(=O)O)C(=O)O)C(=O)O)C(=O)O)C(=O)N[C@H](CCCCNC(=O)CCCc3ccc(I)cc3)C(=O)O)Cc3ccccc3-4)cc2)C(C)C)cc1)C(C)C | – | – | NCr nude mouse, PC3-PiP tumour, plasma | intravenous, 0.8 mg/kg, single dose | – | volume of distribution | 0.106 L/kg |
| COc1ccc(N2C(=O)N(c3c(C)cccc3Cl)Cc3cnc(Nc4ccc(C5CCN(C)CC5)cc4OC)nc32)nc1 | Phosphatidylinositol 4,5-bisphosphate 3-kinase catalytic subunit delta isoform (PIK3CD, Homo sapiens, UniProt O00329) | kinase activity, inhibitor | – | 0.5 µM, kinase PI3K-DELTA | – | inhibition | 9% |
| CC(=O)c1c(C)c2cnc(Nc3ccc(C4CCN(CCS(C)(=O)=O)CC4)cn3)nc2n(C2CCCC2)c1=O | – | – | HR+/HER2- advanced breast cancer patients | oral, dose not given, grade 3/4, total | – | patients with platelet count decreased | 1.2% |
| CCNC(=N)NC(=O)Nc1c(Cl)cc(Cl)cc1Cl | 4'-phosphopantetheinyl transferase PptT | inhibitor | – | – | – | IC50 | 37.5 µM |
| C[C@H]1O[C@@H](O[C@H]2CC[C@@]3(C)[C@@H](CC[C@]4(C)[C@@H]3C=C[C@]35OC[C@@]6(CCC(C)(C)C[C@H]63)[C@@H](O)C[C@]54C)[C@]2(C)CO)[C@H](O)[C@@H](O[C@@H]2O[C@H](CO)[C@@H](O)[C@H](O)[C@H]2O)[C@H]1O | – | – | Mus musculus, pair-fed, AAV8-TBG-Null vector, plasma | oral, high dose, 5 h | – | AST activity | 56.9 U/L and 24.4 U/L and 38.3 U/L and 26.4 U/L and 40.7 U/L and 56.7 U/L |
| O=C1Nc2cc3[nH]nc(-c4ccncc4)c3cc2CN1Cc1ccccc1 | – | CTCAE v4.03 | advanced solid tumour patients | intravenous, 0.9 mg/kg, schedules 1/2 | – | patients with dizziness | 0% |
| COc1c(CCC[P+](c2ccccc2)(c2ccccc2)c2ccccc2)cc2c(c1OC)OCO2.[I-] | HCC 2998 | SRB | – | – | – | GI50 | -5.65 log M |
| CO[C@H]1C[C@@H]2CC[C@@H](C)[C@@](O)(O2)C(=O)C(=O)N2CCCC[C@H]2C(=O)O[C@H]([C@H](C)C[C@@H]2CC[C@@H](OC(=O)NCCOCCOCCOCCOCCOCCOCCOCCOCCC(=O)N3CCc4cc(Cn5nc(-c6ccc7oc(N)nc7c6)c6c(N)ncnc65)ccc4C3)[C@H](OC)C2)C[C@@H](O)[C@H](C)/C=C(\C)[C@@H](O)[C@@H](OC)C(=O)[C@H](C)C[C@H](C)/C=C/C=C/C=C/1C | – | dose-escalation trial | patients with advanced solid tumours | intravenous, all doses weekly, grade ≥3 | – | treatment-related fatigue incidence | 4% |
| CCCSc1ccc2nc(NC(=O)OC)[nH]c2c1 | – | – | simulated gastric fluid | 24 h, pH 1.2, 37 °C | – | equilibrium solubility | 318 µg/mL |
| NCCCC[C@@H]1NC(=O)[C@@H](Cc2c[nH]c3ccccc23)NC(=O)[C@H](c2ccccc2)NC(=O)[C@@H]2C[C@@H](OC(=O)NCCN)CN2C(=O)[C@H](Cc2ccccc2)NC(=O)[C@H](Cc2ccc(OCc3ccccc3)cc2)NC1=O | – | – | healthy human volunteers | 1950 µg twice daily | – | subjects with injection-site pruritus | 28% |
| CC(C)C[C@@H]1NC(=O)[C@H](CC(C)C)NC(=O)[C@H](Cc2c[nH]c3ccccc23)NC(=O)[C@H](CO)NC(=O)[C@H](Cc2c[nH]c3ccccc23)NC(=O)[C@@H]2CCCN2C(=O)[C@H](CC(C)C)NC(=O)[C@H](Cc2c[nH]cn2)NC(=O)[C@@H]2CCCN2C(=O)[C@H](CC(N)=O)NC(=O)[C@H](C)NC(=O)[C@H](Cc2ccc(O)cc2)NC(=O)[C@H](CS)NC(=O)[C@H](CCCCNC(=O)CN2CCN(CC(=O)O)CCN(CC(=O)O)CCN(CC(=O)O)CC2)NC1=O [lutetium-177 labelled] | – | – | Balb/c mouse, female, 4T1 tumour, kidney | intravenous, 3.7 MBq, 96 h | – | tissue uptake | 0.16 %ID |
| Cc1cnc(N2CC3(CCOCC3)C2)c(C(=O)Nc2ccc(C(=O)N3CCc4cc(C(=O)Nc5c(C)cccc5F)sc4-c4ccccc43)cc2)c1 | – | – | dog | inhaled, dose not given, 14 days | – | NOEL | 14.5 mg/kg/day |
| C[C@@H]1NC(=O)[C@H](CCCCNC(=O)CO/N=C/C(=O)NCCCC[C@@H]2NC(=O)[C@@H](Cc3ccccc3)NC(=O)[C@H](CC(=O)O)NC(=O)CNC(=O)[C@H](CCCNC(=N)N)NC2=O)NC(=O)CNC(=O)[C@@H]2CCCN2C(=O)[C@H](CCCCNC(=O)CO/N=C/C(=O)NCCCC[C@@H]2NC(=O)[C@@H](Cc3ccccc3)NC(=O)[C@H](CC(=O)O)NC(=O)CNC(=O)[C@H](CCCNC(=N)N)NC2=O)NC(=O)[C@H](CCCCNC(=O)[C@H](CCCCN)NC(=O)[C@H](Cc2ccccc2)NC(=O)CNC(=O)CN2CCCNCCNCCCNCC2)NC(=O)[C@H](CCCCNC(=O)CO/N=C/C(=O)NCCCC[C@@H]2NC(=O)[C@@H](Cc3ccccc3)NC(=O)[C@H](CC(=O)O)NC(=O)CNC(=O)[C@H](CCCNC(=N)N)NC2=O)NC(=O)CNC(=O)[C@@H]2CCCN2C(=O)[C@H](CCCCNC(=O)CO/N=C/C(=O)NCCCC[C@@H]2NC(=O)[C@@H](Cc3ccccc3)NC(=O)[C@H](CC(=O)O)NC(=O)CNC(=O)[C@H](CCCNC(=N)N)NC2=O)NC1=O [copper-64 labelled] | – | – | normal mice, lung | intravenous, 0.74 MBq, 24 h post-injection | – | tissue uptake | 3.16 ± 0.4 %ID/g |
| CC1(C)C(C=C(Cl)Cl)C1C(=O)OC(C#N)c1ccc(F)c(Oc2ccccc2)c1 (stereo not drawn) | – | refers to: CYP3A4 | human, age 5 years, recombinant human CYP3A4 | 0.1 µM | – | enzyme contribution to clearance | 1.08% |
| CCC[C@@](N)(CO)CCc1ccc(OCCCCCC(C)C)cc1 | – | – | dog, male hounds, plasma | oral capsule, 5 mg/kg, geometric mean | – | AUC(0-t) | 7.28 µM·h |
| Clc1ccc(-c2ccccc2)cc1 | – | – | Sprague-Dawley rats, female, serum | inhalation, 23 µg/rat, 0 h after exposure | – | phosphorus | 11 ± 3 mg/dL |
| O=S(=O)(Nc1ccccc1)c1ccc(NC(=S)Nc2ccccc2)cc1 | – | refers to: EO% | female mouse, blood | oral, 20 mg/kg daily, 14 days | – | blood cell fraction | 0.72% |
